{"data": "Experimental data collected from several papers", "target": "Voltage-gated inwardly rectifying potassium channel KCNH2 (KCNH2, Homo sapiens, UniProt Q12809)", "note": "“And” joins repeats or separate records; there may be more than shown. ± marks the error that the study gave.", "chain of UniProt Q12809 (whole entry, looked up)": "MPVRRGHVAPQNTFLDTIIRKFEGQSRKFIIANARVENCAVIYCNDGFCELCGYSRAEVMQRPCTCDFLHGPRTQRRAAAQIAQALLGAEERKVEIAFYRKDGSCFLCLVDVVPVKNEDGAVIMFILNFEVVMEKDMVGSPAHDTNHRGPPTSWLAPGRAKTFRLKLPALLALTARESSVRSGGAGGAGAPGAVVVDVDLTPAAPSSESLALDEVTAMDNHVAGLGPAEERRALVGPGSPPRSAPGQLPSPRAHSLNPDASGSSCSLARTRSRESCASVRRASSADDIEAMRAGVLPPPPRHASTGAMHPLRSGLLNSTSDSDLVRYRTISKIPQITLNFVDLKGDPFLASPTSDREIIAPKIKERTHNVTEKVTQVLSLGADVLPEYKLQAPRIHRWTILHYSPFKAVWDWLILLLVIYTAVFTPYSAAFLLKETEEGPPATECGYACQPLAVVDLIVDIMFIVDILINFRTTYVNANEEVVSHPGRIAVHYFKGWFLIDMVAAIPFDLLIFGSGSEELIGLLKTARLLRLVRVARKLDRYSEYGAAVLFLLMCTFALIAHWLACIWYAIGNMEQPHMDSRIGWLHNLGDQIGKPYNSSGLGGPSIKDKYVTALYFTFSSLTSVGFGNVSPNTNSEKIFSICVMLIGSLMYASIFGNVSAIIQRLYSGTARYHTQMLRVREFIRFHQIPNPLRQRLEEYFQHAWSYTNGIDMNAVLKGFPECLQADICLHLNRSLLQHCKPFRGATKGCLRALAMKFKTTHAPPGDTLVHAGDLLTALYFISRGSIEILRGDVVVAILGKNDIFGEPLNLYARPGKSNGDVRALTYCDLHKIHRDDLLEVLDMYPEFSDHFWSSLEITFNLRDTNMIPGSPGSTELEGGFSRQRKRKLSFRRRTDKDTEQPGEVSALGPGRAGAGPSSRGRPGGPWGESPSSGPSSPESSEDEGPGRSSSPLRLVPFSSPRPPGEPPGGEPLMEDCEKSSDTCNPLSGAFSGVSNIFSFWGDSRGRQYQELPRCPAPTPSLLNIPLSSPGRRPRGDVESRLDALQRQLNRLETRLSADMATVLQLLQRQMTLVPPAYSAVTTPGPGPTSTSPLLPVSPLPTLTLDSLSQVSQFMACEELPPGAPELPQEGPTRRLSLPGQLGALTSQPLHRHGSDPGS"}
{"Compound": "CN1C[C@H](COc2nccc3c(NCc4ccco4)cc(Cl)nc23)OC1=O", "test": "potassium current, inhibitor, automated patch clamp", "system": "HEK293", "conditions": "concentration not given", "endpoint": "inhibition", "value": "no effect"}
{"Compound": "CC1(F)CN(C(=O)Cn2c(=O)c(C(=O)NCc3ccc(Cl)cc3)cc3nc(N4CCN(CC(=O)O)C4=O)cnc32)C1", "system": "human cells", "conditions": "retest", "endpoint": "Hill slope", "value": 0.79}
{"Compound": "Cc1ccc2c(c1)nc(/C=C/c1cccc3cccnc13)n2-c1cccc(OCCCN2CCN(C)CC2)c1.Cl", "test": "tail current, inhibitor", "endpoint": "Hill slope", "value": 1.27}
{"Compound": "CN(C)C(=O)CN1CCN(c2cnc3c(cc(C(=O)NCc4ccc(Cl)cc4)c(=O)n3CC(=O)N3CC(C)(F)C3)n2)C1=O", "how to read": "relative to: hERG IC50 over antiviral EC50", "endpoint": "therapeutic index", "value": "> 48"}
{"Compound": "Cc1cnc(N2CC3(CCOCC3)C2)c(C(=O)Nc2ccc(C(=O)N3CCc4cc(C(=O)Nc5c(C)cccc5F)sc4-c4ccccc43)cc2)c1", "test": "inhibitor, patch clamp", "conditions": "concentration not given", "endpoint": "hERG current", "value": "no inhibition"}
{"Compound": "CN1CCN(c2cnc3c(cc(C(=O)NCc4ccc(Cl)cc4)c(=O)n3CC(=O)N3CC(C)(F)C3)n2)C1=O", "test": "ion current, inhibitor", "endpoint": "Hill slope", "value": 0.55}
{"Compound": "CCOc1cc(-c2nncn2C)ccc1Nc1ncc2cc(C)nc(NCC(C)(C)C)c2n1", "conditions": "1 µM", "endpoint": "inhibition", "value": "14.1%"}
{"Compound": "CC1(F)CN(C(=O)Cn2c(=O)c(C(=O)NCc3ccc(Cl)cc3)cc3nc(N4CCOC4=O)cnc32)C1", "how to read": "relative to: hERG IC50 over antiviral EC50", "endpoint": "therapeutic index", "value": 19}
{"Compound": "Cc1ccc2c(c1)C(=O)[C@]1(O)CCN(c3ccc4nc(C)ccc4c3)C1=N2", "test": "safety pharmacology screen", "conditions": "human", "endpoint": "Emax", "value": "65%"}
{"Compound": "CN1CCC(CNc2ccc3ncc(-c4cccc(OC(F)(F)F)c4)n3n2)CC1", "test": "blocker, thallium flux", "conditions": "10 µM, 30 min", "how to read": "relative to: control", "endpoint": "response", "value": "> 50%"}
{"Compound": "O=C(Nc1ccc(S(=O)(=O)N2CCC(Cl)CC2)cc1)c1ccc([N+](=O)[O-])o1", "conditions": "10 µM, 60 min, pH 7.4", "endpoint": "inhibition", "value": "32%"}
{"Compound": "CN(C(=O)n1cnc(-c2ccc[n+]([O-])c2)c1)C1CCCCC1", "conditions": "10 µM", "endpoint": "inhibition", "value": "19.1%"}
{"Compound": "Cc1ccc(C(=O)Nc2ccc3ccccc3c2)o1", "test": "ion current, whole-cell patch-clamp", "system": "HEK-293T", "conditions": "10 µM", "endpoint": "inhibition", "value": "13.7%"}
{"Compound": "O=C1c2ccccc2CCCN1CCCCN1CCN(c2ccccn2)CC1", "test": "potassium current inhibition, inhibitor, PatchXpress electrophysiology", "endpoint": "Hill slope", "value": 1}
{"Compound": "Cn1cc2c(C(=O)O)ccc(NS(=O)(=O)c3ccc(OCC4CCC4)c(Cl)c3)c2n1", "test": "binding", "endpoint": "Ki", "value": "> 80 µM"}
{"Compound": "c1cncc(OC[C@@H]2CN(CCN3CCc4ccccc43)CCO2)c1", "test": "potassium current inhibition, inhibitor, PatchXpress electrophysiology", "endpoint": "Emax", "value": "68 ± 9.8%"}
{"Compound": "CC1(C)CN(C(=O)Cn2c(=O)c(C(=O)NCc3ccc(Cl)cc3)cc3nccnc32)C1", "how to read": "relative to: hERG IC50 over antiviral EC50", "endpoint": "therapeutic index", "value": 2.3}
{"Compound": "COc1cc2c(cc1OC)C(=O)N(CCCCN1CCN(c3ccccc3OC)CC1)C2", "test": "potassium current inhibition, inhibitor, PatchXpress electrophysiology", "endpoint": "Hill slope", "value": 1}
{"Compound": "Cc1cc(/C=C/C#N)cc(C)c1Nc1ccnc(Nc2ccc(C#N)cc2)n1", "test": "hERG current, manual patch clamp", "system": "CHO stably expressing hERG", "conditions": "0.3 µM", "endpoint": "inhibition", "value": "19.8%"}
{"Compound": "Clc1cncc(OC[C@@H]2CN(CCN3CCc4ccccc43)CCO2)c1", "test": "potassium current inhibition, inhibitor, PatchXpress electrophysiology", "endpoint": "Hill slope", "value": 1}
{"Compound": "CC(C)(C)NCc1ccc(Nc2ccnc3cc(Cl)ccc23)cc1O", "test": "thallium flux, blocker", "conditions": "30 min", "endpoint": "IC50", "value": "95.3 µM"}
{"Compound": "CC1(F)CN(C(=O)Cn2c(=O)c(C(=O)NCc3ccc(Cl)cc3)cc3nc(N4CCNC4=O)cnc32)C1", "test": "ion current, inhibitor", "endpoint": "Hill slope", "value": 0.51}
{"Compound": "Cc1oc2ccccc2c1Cc1cc(I)c(OCC(=O)O)c(I)c1", "test": "potassium current, activator, patch clamp", "system": "SH-SY5Y endogenous hERG", "conditions": "10 µM, at 0 mV", "how to read": "relative to: control", "endpoint": "activation rate acceleration", "value": "2.7 fold"}
{"Compound": "CC1(F)CN(C(=O)Cn2c(=O)c(C(=O)NCc3ccc(Cl)cc3)cc3nccnc32)C1", "test": "ion current, inhibitor", "endpoint": "Hill slope", "value": 0.86}
{"Compound": "CC(C)c1noc2ncc(C(=O)c3ccccc3O)cc12", "test": "ion current, inhibitor, whole-cell patch clamp", "system": "HEK293T transfected", "conditions": "10 µM, pH 7.4", "endpoint": "inhibition", "value": "8.3% and 9.7% and 8.2% and 5.8% and 10.7%"}
{"note": "For quick reference, copied from above:"}
{"Compound": "CC1(C)CN(C(=O)Cn2c(=O)c(C(=O)NCc3ccc(Cl)cc3)cc3nccnc32)C1", "how to read": "relative to: hERG IC50 over antiviral EC50", "endpoint": "therapeutic index", "value": 2.3}
